Measured values pooled from the literature.
Compare with care: the assays were run in different laboratories. ± gives the spread as reported.
prp N63Q: Ribosomal processing cysteine protease Prp (prp, Staphylococcus aureus, UniProt Q2FXS9, N63Q)
UniProt P08913, sequence (whole entry, looked up): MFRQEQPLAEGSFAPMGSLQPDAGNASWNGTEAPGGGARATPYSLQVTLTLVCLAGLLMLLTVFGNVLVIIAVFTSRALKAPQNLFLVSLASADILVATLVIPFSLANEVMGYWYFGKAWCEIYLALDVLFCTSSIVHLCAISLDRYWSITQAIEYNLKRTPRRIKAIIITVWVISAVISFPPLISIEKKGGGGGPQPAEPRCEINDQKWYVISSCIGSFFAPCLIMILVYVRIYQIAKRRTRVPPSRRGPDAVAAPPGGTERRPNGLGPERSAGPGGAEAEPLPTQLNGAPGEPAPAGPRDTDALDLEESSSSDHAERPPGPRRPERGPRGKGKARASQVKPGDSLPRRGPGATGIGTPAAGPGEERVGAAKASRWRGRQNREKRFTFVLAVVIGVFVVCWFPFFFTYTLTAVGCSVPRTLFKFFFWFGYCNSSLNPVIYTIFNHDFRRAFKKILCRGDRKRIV
UniProt P97612, sequence (whole entry, looked up): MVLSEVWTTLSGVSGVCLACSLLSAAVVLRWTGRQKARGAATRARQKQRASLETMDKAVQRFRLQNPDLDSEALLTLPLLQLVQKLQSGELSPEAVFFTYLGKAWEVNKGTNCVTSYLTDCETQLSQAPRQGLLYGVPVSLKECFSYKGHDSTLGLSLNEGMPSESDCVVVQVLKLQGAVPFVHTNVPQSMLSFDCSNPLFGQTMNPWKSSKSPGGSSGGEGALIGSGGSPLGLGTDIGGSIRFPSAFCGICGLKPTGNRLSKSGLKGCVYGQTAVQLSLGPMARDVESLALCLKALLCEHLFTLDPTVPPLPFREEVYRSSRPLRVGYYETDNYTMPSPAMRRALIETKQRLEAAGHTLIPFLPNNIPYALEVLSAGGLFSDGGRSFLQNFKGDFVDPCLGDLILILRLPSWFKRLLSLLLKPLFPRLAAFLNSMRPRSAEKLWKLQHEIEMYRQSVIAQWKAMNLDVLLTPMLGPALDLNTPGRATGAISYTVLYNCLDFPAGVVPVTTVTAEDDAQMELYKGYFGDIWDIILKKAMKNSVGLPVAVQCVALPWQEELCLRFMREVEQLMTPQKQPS
UniProt Q13557, sequence (whole entry, looked up): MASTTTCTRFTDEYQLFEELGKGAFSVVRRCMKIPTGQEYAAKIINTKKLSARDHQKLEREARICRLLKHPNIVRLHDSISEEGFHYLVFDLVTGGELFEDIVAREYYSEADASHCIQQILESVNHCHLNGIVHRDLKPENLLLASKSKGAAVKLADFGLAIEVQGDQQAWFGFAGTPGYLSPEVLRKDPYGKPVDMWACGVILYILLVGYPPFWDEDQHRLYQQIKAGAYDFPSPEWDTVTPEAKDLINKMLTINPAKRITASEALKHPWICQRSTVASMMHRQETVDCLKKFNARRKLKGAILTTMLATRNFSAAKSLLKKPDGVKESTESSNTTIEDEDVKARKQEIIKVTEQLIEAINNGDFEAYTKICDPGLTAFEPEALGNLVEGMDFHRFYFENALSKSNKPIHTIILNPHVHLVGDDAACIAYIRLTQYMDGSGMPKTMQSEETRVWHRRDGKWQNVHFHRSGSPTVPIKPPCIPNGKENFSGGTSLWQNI
UniProt Q9UBF8, sequence (whole entry, looked up): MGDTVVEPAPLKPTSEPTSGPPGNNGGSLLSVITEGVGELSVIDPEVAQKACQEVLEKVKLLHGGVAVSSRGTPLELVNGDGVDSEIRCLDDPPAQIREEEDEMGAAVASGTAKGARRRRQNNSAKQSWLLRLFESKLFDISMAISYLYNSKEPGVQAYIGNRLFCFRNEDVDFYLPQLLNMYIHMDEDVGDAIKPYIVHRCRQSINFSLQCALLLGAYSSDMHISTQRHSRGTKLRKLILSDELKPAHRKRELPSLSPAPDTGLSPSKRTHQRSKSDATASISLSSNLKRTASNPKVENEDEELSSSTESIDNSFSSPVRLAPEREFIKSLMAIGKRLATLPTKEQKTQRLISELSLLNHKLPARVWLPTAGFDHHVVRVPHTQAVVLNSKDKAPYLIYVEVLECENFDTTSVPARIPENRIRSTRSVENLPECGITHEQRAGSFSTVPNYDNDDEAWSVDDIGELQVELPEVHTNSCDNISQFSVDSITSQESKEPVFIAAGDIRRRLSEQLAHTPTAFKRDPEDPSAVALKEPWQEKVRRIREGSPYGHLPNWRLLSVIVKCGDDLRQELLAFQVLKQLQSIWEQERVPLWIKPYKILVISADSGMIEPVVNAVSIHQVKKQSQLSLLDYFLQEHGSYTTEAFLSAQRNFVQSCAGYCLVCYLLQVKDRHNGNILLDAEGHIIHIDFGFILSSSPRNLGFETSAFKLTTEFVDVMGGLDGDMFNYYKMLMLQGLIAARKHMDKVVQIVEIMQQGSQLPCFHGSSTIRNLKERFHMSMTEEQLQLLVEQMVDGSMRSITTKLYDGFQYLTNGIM

Compound | target | assay | test system | conditions | inhibition [%]
O=C(Nc1cccnn1)N1CCC(=Cc2cccc(Oc3ccc(C(F)(F)F)cn3)c2)CC1 | kainate receptor, rat | binding |  | 10 µM, together with: [3H]kainic acid | 20
CN1CCN(c2cc(-c3ccncc3)c(-c3ccc4ccccc4c3)nn2)CC1 | Alpha-2A adrenergic receptor (ADRA2A, Homo sapiens, UniProt P08913) | antagonist, FLIPR |  | 10 µM | 14.1
COc1cc(Nc2ncc(F)c(Nc3ccc4c(n3)NC(=O)C(C)(C)O4)n2)cc(OC)c1OC | cAMP-dependent protein kinase catalytic subunit alpha (PRKACA, Homo sapiens, UniProt P17612) | KINOMEscan |  | 10 µM, PKAC-alpha | 88
Cc1cccc(C)c1OCC(=O)N[C@@H](Cc1ccccc1)[C@@H](O)C[C@H](Cc1ccccc1)NC(=O)[C@H](C(C)C)N1CCCNC1=O | prp N63Q | enzyme activity, inhibitor |  | 10 µM, prp 21.4 nM, together with: FITC peptide substrate 0.5 µM | 34.4 ± 17.7
CN(C(=O)n1cnc(-c2ccc[n+]([O-])c2)c1)C1CCCCC1 | Fatty-acid amide hydrolase 1 (Faah, Rattus norvegicus, UniProt P97612) | probe labelling, inhibitor, competitive ABPP | rat brain soluble fraction | 100 µM, together with: azido-FP probe | 99.9
CCOC(=O)c1ccc(OC(=O)CCCCCNC(=N)N)cc1 | prp N63Q | enzyme activity, inhibitor |  | 10 µM, prp 21.4 nM, together with: FITC peptide substrate 0.5 µM | 35.6 ± 21.3
COc1ccc(N2C(=O)N(c3c(C)cccc3Cl)Cc3cnc(Nc4ccc(C5CCN(C)CC5)cc4OC)nc32)nc1 | Phosphatidylinositol 4-kinase beta (PI4KB, Homo sapiens, UniProt Q9UBF8) | kinase activity, inhibitor |  | 0.5 µM, kinase PI4K-BETA | -6
O=C(Nc1cnccc1Cl)N1CCN(Cc2ccc3c(c2)OC(F)(F)O3)CC1 | Calcium/calmodulin-dependent protein kinase type II subunit delta (CAMK2D, Homo sapiens, UniProt Q13557) | enzyme activity, inhibitor |  | 50 µM, together with: autocamtide-2 | 11
N=C(N)c1ccc2cc(OC(=O)c3ccc(N=C(N)N)cc3)ccc2c1 | prp N63Q | enzyme activity, inhibitor |  | 10 µM, prp 21.4 nM, together with: FITC peptide substrate 0.5 µM | 31.9 ± 16.8
CC(=O)NC[C@H]1[C@H](O)[C@H](O)[C@@H]2[C@H](O)C[C@@H](CO)N21 | human placental β-N-acetylglucosaminidase |  |  | 0.00161 µM, run 1, together with: p-nitrophenyl GlcNAc | 15.5

Excerpt of the above:
Compound | target | assay | test system | conditions | inhibition [%]
CN(C(=O)n1cnc(-c2ccc[n+]([O-])c2)c1)C1CCCCC1 | Fatty-acid amide hydrolase 1 (Faah, Rattus norvegicus, UniProt P97612) | probe labelling, inhibitor, competitive ABPP | rat brain soluble fraction | 100 µM, together with: azido-FP probe | 99.9
